Results from different studies.
Lines come from different studies, so protocols differ.
UCHL1: Ubiquitin carboxyl-terminal hydrolase isozyme L1 (UCHL1, Homo sapiens, UniProt P09936)
Sequence of UniProt P09936 (whole entry, looked up): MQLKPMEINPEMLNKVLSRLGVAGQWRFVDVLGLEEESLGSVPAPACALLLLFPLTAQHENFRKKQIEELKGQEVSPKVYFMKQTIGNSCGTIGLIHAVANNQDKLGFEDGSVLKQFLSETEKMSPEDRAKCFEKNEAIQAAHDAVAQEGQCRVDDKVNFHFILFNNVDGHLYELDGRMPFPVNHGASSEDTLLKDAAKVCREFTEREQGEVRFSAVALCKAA
T1: RNA aptamer; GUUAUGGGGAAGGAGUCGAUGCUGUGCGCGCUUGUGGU
T2: RNA aptamer, 5'-triphosphate; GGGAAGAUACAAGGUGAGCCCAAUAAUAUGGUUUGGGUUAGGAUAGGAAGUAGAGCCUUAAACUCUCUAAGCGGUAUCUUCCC
T3: RNA aptamer; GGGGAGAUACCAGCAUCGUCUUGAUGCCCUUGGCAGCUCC
T4: RNA aptamer del22-39, UUCG tetraloop closing ends; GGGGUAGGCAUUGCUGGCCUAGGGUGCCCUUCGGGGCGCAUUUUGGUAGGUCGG
T5: RNA aptamer; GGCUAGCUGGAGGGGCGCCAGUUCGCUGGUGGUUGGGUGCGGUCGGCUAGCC
T6: RNA aptamer; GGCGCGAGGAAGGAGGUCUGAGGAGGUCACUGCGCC
T7: RNA aptamer, 1-bp stem, UUCG tetraloop; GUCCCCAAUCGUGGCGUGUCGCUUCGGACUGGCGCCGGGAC
T8: RNA aptamer; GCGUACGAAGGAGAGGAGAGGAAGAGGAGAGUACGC
T9: RNA aptamer; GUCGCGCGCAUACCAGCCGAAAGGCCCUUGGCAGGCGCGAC
T10: RNA aptamer (Homo sapiens); chain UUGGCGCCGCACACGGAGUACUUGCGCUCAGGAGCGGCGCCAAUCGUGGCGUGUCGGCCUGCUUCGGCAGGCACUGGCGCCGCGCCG; chain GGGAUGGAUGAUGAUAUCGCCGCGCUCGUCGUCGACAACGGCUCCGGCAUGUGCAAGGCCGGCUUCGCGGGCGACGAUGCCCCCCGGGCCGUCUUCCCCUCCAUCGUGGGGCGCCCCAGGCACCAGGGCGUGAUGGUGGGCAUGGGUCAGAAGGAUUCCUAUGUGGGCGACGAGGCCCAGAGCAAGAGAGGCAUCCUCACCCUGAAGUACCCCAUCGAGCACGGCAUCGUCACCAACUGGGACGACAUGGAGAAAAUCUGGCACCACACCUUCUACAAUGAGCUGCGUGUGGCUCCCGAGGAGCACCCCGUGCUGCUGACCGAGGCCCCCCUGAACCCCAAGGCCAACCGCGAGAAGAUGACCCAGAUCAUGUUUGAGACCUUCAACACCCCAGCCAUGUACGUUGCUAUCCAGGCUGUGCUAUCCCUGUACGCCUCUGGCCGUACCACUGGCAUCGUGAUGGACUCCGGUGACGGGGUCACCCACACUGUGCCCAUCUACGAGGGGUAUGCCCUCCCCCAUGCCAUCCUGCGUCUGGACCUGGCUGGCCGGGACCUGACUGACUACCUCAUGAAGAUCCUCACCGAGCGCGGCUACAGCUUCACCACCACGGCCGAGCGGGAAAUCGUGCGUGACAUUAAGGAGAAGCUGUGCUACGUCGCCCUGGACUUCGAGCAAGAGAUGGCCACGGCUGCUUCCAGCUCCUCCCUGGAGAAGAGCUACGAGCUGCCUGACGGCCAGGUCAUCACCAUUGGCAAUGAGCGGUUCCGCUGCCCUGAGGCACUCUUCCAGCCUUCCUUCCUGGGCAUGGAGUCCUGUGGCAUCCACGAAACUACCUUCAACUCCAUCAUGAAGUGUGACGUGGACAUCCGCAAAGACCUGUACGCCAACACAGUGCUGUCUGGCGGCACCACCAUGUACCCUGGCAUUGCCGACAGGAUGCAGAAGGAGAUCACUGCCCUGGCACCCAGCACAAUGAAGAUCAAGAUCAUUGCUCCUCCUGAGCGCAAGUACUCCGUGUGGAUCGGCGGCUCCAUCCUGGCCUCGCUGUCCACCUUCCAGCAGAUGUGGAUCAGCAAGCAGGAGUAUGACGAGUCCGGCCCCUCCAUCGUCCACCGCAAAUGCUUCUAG

CN1C=CC(=Cc2sc3ccccc3[n+]2CC(=O)NCCOCCOCCOCCNC(=O)CCCC[C@@H]2SC[C@@H]3NC(=O)N[C@@H]32)c2ccccc21 — binding (T1, RNA aptamer; fluorescence light-up; 10 µM dye): binds
Nc1ncnc2[nH]cnc12 — binding (T2, RNA aptamer, 5'-triphosphate; fluorescence competition): no binding
CCCCNC(=O)C(C#N)=Cc1cccc(Cl)c1Cl — labelling (UCHL1; covalent, intact protein LC-MS; 12.5 µM): 32.7%
Cn1c(=O)c2c(ncn2C)n(C)c1=O — binding (T3, RNA aptamer; competitor, ThT displacement fluorescence; MgCl2 mM): no binding
Nc1nc2c(ncn2[C@@H]2O[C@H](COP(=O)(O)OP(=O)(O)OP(=O)(O)O)[C@@H](O)[C@H]2O)c(=O)[nH]1 — binding (T4, RNA aptamer del22-39, UUCG tetraloop closing ends; imino proton NMR titration): no binding
COc1cc(/C=C2\N=C(C)N(c3ccc([N+](C)(C)C)cc3)C2=O)cc(OC)c1O — binding (T5, RNA aptamer; fluorescence turn-on; MgCl2 5 mM, KCl 100 mM): binds
Cc1ccc2c(c1)sc(-c1ccc(N(C)C)cc1)[n+]2C — binding (T2, RNA aptamer, 5'-triphosphate; fluorescence turn-on): binds
CN1C(=O)/C(=C/c2cc(F)c(O)c(F)c2)N=C1/C=N/O — binding (T6, RNA aptamer; fluorescence turn-on; MgCl2 5 mM, KCl 100 mM): binds
CN(CCO)c1cc2sc(/C=C(\C#N)c3ccc(C#N)cc3)cc2s1 — binding (T7, RNA aptamer, 1-bp stem, UUCG tetraloop; fluorescence turn-on): binds weakly
Cl.O=C(CCl)NC(c1ccccc1)C1CC1c1ccncc1 (centres unmarked) — labelling (UCHL1; covalent, intact protein LC-MS; 12.5 µM): 16.7%
C[n+]1cc(NC(=O)c2ccc3ccc4ccc(C(=O)Nc5cc6ccccc6[n+](C)c5)nc4c3n2)cc2ccccc21 — binding (T8, RNA aptamer; competitor, competition fluorescence): binds
Cn1c(=O)c2[nH]cnc2n(C)c1=O — binding (T9, RNA aptamer; NMR titration; together with: theophylline): binds
CC1=N/C(=C\c2cc(F)c(O)c(F)c2)C(=O)N1CC(F)(F)F — binding (T2, RNA aptamer, 5'-triphosphate; X-ray crystallography): binds
CN(CCO)c1cc2sc(/C=C(\C#N)c3ccc(C#N)cc3)cc2s1 — binding (T10, RNA aptamer (Homo sapiens); fluorescence activation): binds

A few entries again:
Cl.O=C(CCl)NC(c1ccccc1)C1CC1c1ccncc1 (centres unmarked) — labelling (UCHL1; covalent, intact protein LC-MS; 12.5 µM): 16.7%
C[n+]1cc(NC(=O)c2ccc3ccc4ccc(C(=O)Nc5cc6ccccc6[n+](C)c5)nc4c3n2)cc2ccccc21 — binding (T8, RNA aptamer; competitor, competition fluorescence): binds
